Experimental data of several laboratories.
Compare with care: the assays were run in different laboratories. ± gives the spread as reported.

Oc1ccc2ccccc2c1/N=N/c1ccccc1 — measured concentration (extracted rat blood QC samples; 0.5 µg/L, 4 h, room temperature, short-term stability): 0.482 µg/L
Cc1ccc(-c2ccc(-c3cc4sccc4o3)cn2)nc1 — radiative decay rate constant (TCSPC; water, HEPES 100 mM; pH 7.4, zinc-free ligand): 0.23 ns⁻¹
[11CH3]N1CCN(CCCOc2ccc(=O)n(-c3ccc(Cl)c(Cl)c3)n2)CC1 — uptake (PET-CT; BALB/c mouse male, kidney; intravenous, dose not given, 5 min): 8.87 ± 1.16 %ID/cc
CC[C@H](C)[C@H](NC(=O)[C@H](CC(C)C)NC(=O)[C@H](Cc1c[nH]c2ccccc12)NC(=O)[C@H](C)NC(=O)[C@@H](NC(=O)[C@H](Cc1ccccc1)NC(=O)[C@H](CC(=O)O)NC(=O)[C@H](CCCNC(=N)N)NC(=O)[C@H](C)NC(=O)[C@H](C)NC(=O)[C@H](CC(C)C)NC(=O)[C@H](C)NC(=O)[C@H](CC(=O)O)NC(=O)[C@H](CC(C)C)NC(=O)[C@@H](NC(=O)[C@@H](NC(=O)[C@H](C)NC(=O)[C@H](CC(C)C)NC(=O)[C@H](CCC(=O)O)NC(=O)[C@H](CO)NC(=O)[C@H](CO)NC(=O)[C@H](Cc1ccccc1)NC(=O)[C@@H](NC(=O)CNC(=O)[C@H](CCC(=O)O)NC(=O)CNC(=O)[C@@H](N)Cc1cnc[nH]1)[C@@H](C)O)[C@@H](C)O)[C@@H](C)CC)[C@@H](C)CC)C(=O)N[C@@H](C)C(=O)N[C@H](C(=O)N[C@@H](CCCCN)C(=O)N[C@H](C(=O)N[C@H](C(=O)N[C@@H](CC(=O)O)C(=O)N[C@@H](CCCCN)C(=O)N[C@@H](CCCCN)C(=O)N[C@@H](CCCCN)C(=O)N[C@@H](CCCCN)C(=O)N[C@@H](CCCCN)C(=O)N[C@@H](CCCCN)C(N)=O)[C@@H](C)O)[C@@H](C)CC)[C@@H](C)O — AUC(0-last) (immunoaffinity LC-MS/MS; healthy human subjects, plasma; intravenous infusion, 1 mg, 15 min infusion): 0.0408 µM·h
COc1cc(/C=C/C(=O)N2CCc3ccccc3C2)ccc1O[11CH3] — uptake (PET-CT imaging; C57BL/6 mouse, male, heart; intravenous, 5 min): 14.2 ± 0.18 %ID/cc
Nc1ncnc2c1nc(-n1nnc3c1CCC1C(CO)C1CC3)n2C1OC(CO)C(O)C1O (mixture of isomers) — fluorescence lifetime τ2 (frequency-domain fluorometry; methanol): 0.8 ns
O=C([O-])CN1CCN(CC(=O)[O-])CCN(CC(=O)NC[C@H]2CC[C@H](C(=O)N[C@H](Cc3cnc4ccccc4c3)C(=O)NCCCC[C@H](NC(=O)N[C@@H](CCC(=O)O)C(=O)O)C(=O)O)CC2)CCN(CC(=O)[O-])CC1.[64Cu+2] — absorbed dose (PET/CT dosimetry OLINDA/EXM; healthy volunteers, eyes; up to 24 h post-injection): 0.00874 mGy/MBq
CN(CCCN=Cc1ccccc1[O-])CCN(C)CCCN=Cc1ccccc1[O-].[67Ga+3] — tissue uptake ratio (rat; intravenous, 1 min; baseline: heart over blood): 6.5 ± 0.3
Cn1c(=O)oc2ccc(-c3ccc(CC(C#N)NC(=O)C4CNCCCO4)c(F)c3)cc21 (stereo not drawn) — treatment-emergent adverse event incidence (item: skin exfoliation; human volunteers; oral, dose not given): 3.7%
Brc1ccc(Nc2nc(NN=Cc3c[nH]c4ccccc34)nc(N3CCOCC3)n2)cc1 — hepatic clearance (human liver microsomes; in vivo extrapolated): 0 mL/min
COc1ccc(-c2csc(N/N=C(\C)c3cc(O)cc(O)c3)n2)cc1 — concentration after storage (LC-MS/MS; rat plasma; 1000 ng/mL, 5 h, 25 °C, bench-top storage): 1060 ng/mL
CC(C)[C@H](NC(=O)[C@@H]1CCCN1C(=O)[C@H](CCCNC(=N)N)NC(=O)[C@H](CS)NC(=O)[C@H](Cc1c[nH]c2ccccc12)NC(=O)[C@H](CCCNC(=N)N)NC(=O)[C@@H](Cc1ccccc1)NC(=O)[C@H](Cc1c[nH]cn1)NC(=O)[C@H](CCC(=O)O)NC(=O)[C@H](CS)NC(=O)[C@H](CS)NC(=O)[C@@H]1CC(=O)N[C@@H](CCCNC(=N)N)C(=O)NCC(=O)N[C@@H](CC(=O)O)C(=O)N[C@H](Cc2ccc(O)cc2)C(=O)N1)C(N)=O [technetium-99m labelled] — tissue uptake (C57 mouse, female, B16/F1 melanoma, lung; intravenous, 0.037 MBq, 24 h): 0.24 ± 0.08 %ID/g
O=C([O][Ti+2][O]C(=O)c1ccc(P(c2ccccc2)c2ccccc2)cc1)c1ccc(P(c2ccccc2)c2ccccc2)cc1.[Cl][Au].[Cl][Au].c1cc[cH-]c1.c1cc[cH-]c1 — absorption rate constant (ICP-MS, item: gold; NOD.CB17-Prkdc scid/J mice, blood; 7.5 mg/kg, after first injection): 1.3 h⁻¹
CC12CC(c3ccc(S(C)(=O)=O)cc3)C3=C4CCC(=O)C=C4CCC3C1CCC2(O)C(F)(F)C(F)(F)F (stereo not drawn) — possibly drug-related headache incidence (human; oral, 4 mg; baseline: subjects): 21.4%
COC(=O)c1ccc(-c2cn(Cc3cc(Cl)ccc3O[11CH3])nn2)cc1 — distribution volume (PET, two-tissue compartment model; rhesus monkey, brain Putamen; dose not given): 0.64 mL/cm³
COc1cc(N(C)CCN(C)C)c(NC(=O)CCSCC(NC(C)=O)C(=O)O)cc1Nc1nccc(-c2cn(C3CC3)c3ccccc23)n1 (stereo not drawn) — excreted amount (radio-HPLC; human, feces; 48 to 96 h, sample holds 20.06% dose; baseline: dose): 0.61%
NC[C@@H](C(=O)Nc1ccc(-c2cn[nH]c2)cc1)c1ccccc1 — total eye irritation score (OECD 405 eye irritation; New Zealand White rabbit, eye; topical, 0.1%, 8 h (day 1); direction not given): 0
COc1ccnc(C[S+]([O-])c2nc3cc(-n4cccc4)ccc3[nH]2)c1C (stereo not drawn) — Vz/F ratio (male Sprague Dawley rats, plasma; oral, 5 mg/kg ilaprazole racemate; baseline: compound over R-ilaprazole): 0.56
Cc1ccc(OCC(=O)N(Cc2cccs2)c2ccn[nH]2)cc1 — half-life (male Sprague-Dawley rat, plasma; oral, 30 mg/kg, single dose): 0.89 h
[11CH3]c1ccc2nc(C3CCC3)n(-c3ccc4[nH]ncc4c3)c2n1 — absorbed dose (extrapolated from mouse biodistribution; human male, total body): 2.9 µSv/MBq
CC(=O)N[C@H](CCCCN)C(=O)N[C@H](CC(C)C)C(=O)N[C@H](CCCCN)C(=O)N[C@H](CO)C(=O)N[C@H](CC(C)C)C(=O)N[C@H](CC(C)C)C(=O)N[C@H](CCCCN)C(=O)N[C@@H](C(=O)N[C@H](CC(C)C)C(=O)N[C@H](CO)C(=O)N[C@H](CCCCN)C(=O)N[C@H](C)C(=O)N[C@H](CCCCN)C(=O)N[C@H](C)C(=O)N[C@H](C)C(=O)N[C@H](CCCCN)C(=O)N[C@H](CC(C)C)C(=O)N[C@H](CCCCN)C(=O)N[C@@H](C(=O)N[C@H](CC(C)C)C(=O)N[C@H](CC(C)C)C(=O)N[C@H](CCCCN)C(=O)N[C@H](C)C(=O)N[C@H](CC(C)C)C(=O)N[C@H](CO)C(=O)N[C@H](CO)C(N)=O)[C@H](C)O)[C@H](C)O — HC50 (human erythrocytes; 18 h, pH 7.4, 37 °C, 50% hemolysis): 279 µg/mL
CN(C(=O)Cn1c(=O)oc2ccc(-c3ccc(OCC[18F])cc3)cc21)c1ccccc1 — intact parent fraction (ischemic Sprague-Dawley rats, brain; intravenous, 10 MBq radiolabelled, 60 min): 76.4 ± 2.1%
CC(C)[C@H](NC(=O)CNC(=O)[C@H](CCC(N)=O)NC(=O)[C@H](C)N)C(=O)O — volume of distribution (human male, plasma; intravenous infusion, 30 mg/kg single, 15 min infusion, geometric mean): 33 L/kg
CSCC(NC(=O)c1cc(Cl)ccc1Cl)C(=O)NC(CC(C)C)B(O)O (stereo not drawn) — detection in brain (Sprague-Dawley rat; oral, 0.6 mg/kg): not detected
CCc1c2c(nc3ccc(O)cc13)-c1cc3c(c(=O)n1C2)COC(=O)[C@]3(O)CC — Tmax (human patients, plasma; intravenous, 12 mg/m2 of parent drug): 1.5 h
CC(C)C[C@@H](NC(=O)[C@H](NC(=O)[C@H]1CCCN1)[C@H](C)O)C(=O)N[C@H](Cc1c[nH]cn1)C(=O)N[C@@H](C(=O)N[C@H](Cc1c[nH]cn1)C(=O)N[C@H](CC(N)=O)C(=O)N[C@H](CCCNC(=N)N)C(=O)N[C@H](CCCNC(=N)N)C(=O)N[C@H](CCCNC(=N)N)C(=O)N[C@H](CCCNC(=N)N)C(=O)N[C@H](CCCNC(=N)N)C(N)=O)[C@H](C)O — AUC fraction of beta phase (Beagle dog, plasma; intravenous, 3 mg/kg, single dose): 93%
N=C(N)NCCC[C@@H]1NC(=O)[C@H](Cc2c[nH]c3ccccc23)NC(=O)[C@@H](CC2CCCCC2)NC(=O)[C@@H]2CCCN2C(=O)[C@@H](NC(=O)CCc2ccccc2)CCCNC1=O — elimination rate constant (C57BL/6J mice, brain; subcutaneous, 1 mg/kg, two-compartment model): 0.00035 s⁻¹
CCCCCCCCS(=O)(=O)CC(=O)C(F)(F)F — hydrate fraction (19F NMR; chloroform): 100%
CC/C=C\C/C=C\C/C=C\C/C=C\C/C=C\CCCCOC(CC)C(=O)O (stereo not drawn) — radioactivity concentration ([14C] label; male Wistar rat, kidney cortex; oral, 100 mg/kg, 4 h): 92.8 µg equiv/g
O=C1C2=C(CCN(Cc3ccccc3)C2)N2CCN=C2N1Cc1ccc(C(F)(F)F)cc1 — hepatic clearance (microsomal stability; human liver microsomes): 19.7 mL/min/kg
C[Si](C)(C)C[C@@H](CN)CC(=O)O — brain Cmax (Sprague-Dawley rat, male, brain; oral, 100 mg/kg, estimated as Cmax x Kp): 2900 nM
COc1cc(NC(C)=O)c2c(c1O)-c1c(OC)c(OC)cc3c1C(C2)N(C)CC3 (stereo not drawn) — remaining compound (rat liver homogenate; 0.5 µg/mL, time not given, three freeze-thaw cycles): 102 ± 4.7%
COc1cccc([O-])c1C=NCCCN(C)CCN(C)CCCN=Cc1c([O-])cccc1OC.[67Ga+3] — tissue uptake ratio (rat; intravenous, 1 min; baseline: heart over lung): 1 ± 0.05

A few entries again:
COc1cc(NC(C)=O)c2c(c1O)-c1c(OC)c(OC)cc3c1C(C2)N(C)CC3 (stereo not drawn) — remaining compound (rat liver homogenate; 0.5 µg/mL, time not given, three freeze-thaw cycles): 102 ± 4.7%
CCCCCCCCS(=O)(=O)CC(=O)C(F)(F)F — hydrate fraction (19F NMR; chloroform): 100%
CC12CC(c3ccc(S(C)(=O)=O)cc3)C3=C4CCC(=O)C=C4CCC3C1CCC2(O)C(F)(F)C(F)(F)F (stereo not drawn) — possibly drug-related headache incidence (human; oral, 4 mg; baseline: subjects): 21.4%
Cc1ccc(-c2ccc(-c3cc4sccc4o3)cn2)nc1 — radiative decay rate constant (TCSPC; water, HEPES 100 mM; pH 7.4, zinc-free ligand): 0.23 ns⁻¹
Nc1ncnc2c1nc(-n1nnc3c1CCC1C(CO)C1CC3)n2C1OC(CO)C(O)C1O (mixture of isomers) — fluorescence lifetime τ2 (frequency-domain fluorometry; methanol): 0.8 ns
